{"data": "Measurements of several laboratories", "note": "Numbered parts are unrelated; each lists some results of a single study. Positions count from the first letter of the parent shown."}
{"data": "Study 1", "target": "Sal-like protein 4, full length isoform B (SALL4, Homo sapiens, UniProt Q9UJQ4-2, residues 1-616)", "technique": "universal PBM", "form": "double-stranded DNA, one strand shown", "medium": "in vitro", "tested at": "not given", "setting": "8-mer, flanks averaged, mean of replicates", "direction": "higher = stronger binding", "Construct (chain)": "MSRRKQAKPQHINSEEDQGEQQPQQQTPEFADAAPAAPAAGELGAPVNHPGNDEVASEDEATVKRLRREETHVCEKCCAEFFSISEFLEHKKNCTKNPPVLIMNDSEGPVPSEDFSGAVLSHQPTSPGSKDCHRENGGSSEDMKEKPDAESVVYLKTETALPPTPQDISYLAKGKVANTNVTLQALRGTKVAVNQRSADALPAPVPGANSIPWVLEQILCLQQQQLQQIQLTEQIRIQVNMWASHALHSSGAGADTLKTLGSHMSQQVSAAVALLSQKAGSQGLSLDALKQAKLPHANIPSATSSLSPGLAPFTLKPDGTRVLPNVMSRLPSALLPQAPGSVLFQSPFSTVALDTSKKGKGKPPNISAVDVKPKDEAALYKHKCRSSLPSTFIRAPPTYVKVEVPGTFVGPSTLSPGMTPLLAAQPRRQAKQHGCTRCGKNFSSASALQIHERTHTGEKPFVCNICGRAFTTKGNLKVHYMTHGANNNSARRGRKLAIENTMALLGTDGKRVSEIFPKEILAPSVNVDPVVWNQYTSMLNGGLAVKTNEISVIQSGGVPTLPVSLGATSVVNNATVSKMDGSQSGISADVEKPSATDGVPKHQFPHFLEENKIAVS"}
{"Oligonucleotide": "CTCGATCC", "E-score": -0.119}
{"Oligonucleotide": "CATTAGAA", "E-score": 0.176}
{"Oligonucleotide": "GGTTAAGA", "E-score": 0.0289}
{"Oligonucleotide": "CCTGGCTA", "E-score": -0.107}
{"Oligonucleotide": "ACGATTAA", "E-score": 0.169}
{"Oligonucleotide": "CCTTAGTC", "E-score": -0.0992}
{"Oligonucleotide": "TAATTACA", "E-score": 0.317}
{"Oligonucleotide": "GAGTGGCA", "E-score": -0.185}
{"Oligonucleotide": "AAGTTGAC", "E-score": -0.0657}
{"Oligonucleotide": "CCCGAATC", "E-score": -0.268}
{"Oligonucleotide": "CTGCGAAG", "E-score": -0.188}
{"Oligonucleotide": "CGAATGGA", "E-score": -0.0651}
{"Oligonucleotide": "GAATGTAA", "E-score": 0.235}
{"Oligonucleotide": "CAAGAGAC", "E-score": -0.148}
{"Oligonucleotide": "CTCGTAGA", "E-score": -0.0726}
{"Oligonucleotide": "ATCAGGAG", "E-score": 0.0148}
{"Oligonucleotide": "AGCACCAA", "E-score": 0.0232}
{"Oligonucleotide": "AGAACAAT", "E-score": 0.303}
{"Oligonucleotide": "AATCCGTG", "E-score": -0.151}
{"Oligonucleotide": "CTAAGTAG", "E-score": -0.0296}
{"Oligonucleotide": "CATTCAGG", "E-score": -0.0299}
{"Oligonucleotide": "TCACGTCA", "E-score": -0.0448}
{"Oligonucleotide": "AGCAATCC", "E-score": -0.151}
{"Oligonucleotide": "TAAATACA", "E-score": 0.33}
{"Oligonucleotide": "CCTAAAAA", "E-score": 0.0493}
{"data": "Study 2", "target": "CREB3L1, bZIP domain (human)", "technique": "DHFR protein complementation", "medium": "yeast", "setting": "single substitutions, most at no-binding floor", "reference": "wild-type JUN-FOS pair", "direction": "higher = stronger binding", "starting sequence": "JUN, bZIP domain (human); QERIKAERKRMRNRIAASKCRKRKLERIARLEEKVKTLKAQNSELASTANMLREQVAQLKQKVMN; partner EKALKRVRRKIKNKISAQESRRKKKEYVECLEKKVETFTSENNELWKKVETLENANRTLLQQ"}
{"Variant": "M51H", "binding fitness": "-1.45 natural log"}
{"Variant": "Q55S", "binding fitness": "-1.39 natural log"}
{"Variant": "L45I", "binding fitness": "-1.38 natural log"}
{"Variant": "M51G", "binding fitness": "-1.34 natural log"}
{"Variant": "L31K", "binding fitness": "-1.51 natural log"}
{"Variant": "S47A", "binding fitness": "-1.29 natural log"}
{"Variant": "A57L", "binding fitness": "-1.4 natural log"}
{"Variant": "L31C", "binding fitness": "-1.47 natural log"}
{"Variant": "A29C", "binding fitness": "-1.5 natural log"}
{"Variant": "E32P", "binding fitness": "-1.5 natural log"}
{"Variant": "L38H", "binding fitness": "-1.48 natural log"}
{"Variant": "E33Q", "binding fitness": "-1.51 natural log"}
{"Variant": "E44H", "binding fitness": "-1.24 natural log"}
{"Variant": "L52P", "binding fitness": "-1.45 natural log"}
{"Variant": "S47H", "binding fitness": "-1.15 natural log"}
{"Variant": "T48G", "binding fitness": "-1.5 natural log"}
{"Variant": "M51T", "binding fitness": "-1.42 natural log"}
{"Variant": "E32T", "binding fitness": "-1.28 natural log"}
{"Variant": "R53I", "binding fitness": "-1.46 natural log"}
{"Variant": "V35P", "binding fitness": "-1.47 natural log"}
{"Variant": "K39Y", "binding fitness": "-1.51 natural log"}
{"Variant": "T48H", "binding fitness": "-1.31 natural log"}
{"Variant": "E44P", "binding fitness": "-1.51 natural log"}
{"Variant": "E33H", "binding fitness": "-1.49 natural log"}
{"Variant": "A29S", "binding fitness": "-1.46 natural log"}
{"data": "Study 3", "target": "OGT, full length, His-tagged (human)", "technique": "phage display, sequencing", "medium": "in vitro", "tested at": "1 µg OGT", "setting": "single substitutions, 15-mer displayed peptide, unchanged parent 19.6", "reference": "input library", "direction": "higher = stronger binding", "starting sequence": "peptide; TAPFYPPAYQIQVFK"}
{"Variant": "T1V", "fold enrichment": "21 fold"}
{"Variant": "Y9T", "fold enrichment": "1.16 fold"}
{"Variant": "V13M", "fold enrichment": "10.8 fold"}
{"Variant": "V13P", "fold enrichment": "9.1 fold"}
{"Variant": "Q10S", "fold enrichment": "1.23 fold"}
{"Variant": "P7W", "fold enrichment": "2.88 fold"}
{"Variant": "Q10D", "fold enrichment": "0.434 fold"}
{"Variant": "I11E", "fold enrichment": "0.748 fold"}
{"Variant": "T1I", "fold enrichment": "22.5 fold"}
{"Variant": "V13G", "fold enrichment": "3.44 fold"}
{"Variant": "T1H", "fold enrichment": "20.9 fold"}
{"Variant": "F14D", "fold enrichment": "11.4 fold"}
{"Variant": "T1L", "fold enrichment": "12.9 fold"}
{"Variant": "P6L", "fold enrichment": "1.55 fold"}
{"Variant": "Q10A", "fold enrichment": "1.57 fold"}
{"Variant": "F14M", "fold enrichment": "12.7 fold"}
{"Variant": "V13F", "fold enrichment": "18.9 fold"}
{"Variant": "A8V", "fold enrichment": "27.5 fold"}
{"Variant": "P3D", "fold enrichment": "26.4 fold"}
{"Variant": "F14P", "fold enrichment": "23.6 fold"}
{"data": "Study 4", "target": "CCNE2, cyclin fold, Cln2 fusion (human)", "technique": "yeast growth competition, sequencing", "medium": "yeast", "setting": "weak parent motif", "reference": "not given", "direction": "higher = stronger binding", "starting sequence": "DNAH7 docking peptide (human); HELFQRLDFDNDG; partner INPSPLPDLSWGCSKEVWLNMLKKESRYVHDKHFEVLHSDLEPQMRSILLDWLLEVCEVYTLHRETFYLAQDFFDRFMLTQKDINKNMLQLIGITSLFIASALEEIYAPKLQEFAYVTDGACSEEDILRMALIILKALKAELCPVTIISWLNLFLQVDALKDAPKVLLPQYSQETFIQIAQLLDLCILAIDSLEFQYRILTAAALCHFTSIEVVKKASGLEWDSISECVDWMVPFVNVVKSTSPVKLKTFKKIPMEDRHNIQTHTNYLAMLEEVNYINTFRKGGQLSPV"}
{"Variant": "HALFQRLDFDNDG [E2A]", "normalised enrichment score": -0.326}
{"Variant": "HEAFQRLDFDNDG [L3A]", "normalised enrichment score": -0.304}
{"Variant": "HELAQRLDFDNDG [F4A]", "normalised enrichment score": -0.121}
{"Variant": "HELFQRLDFDNAG [D12A]", "normalised enrichment score": -0.246}
{"Variant": "HELFQRLDADNDG [F9A]", "normalised enrichment score": -0.358}
{"Variant": "HELFQRLDFDADG [N11A]", "normalised enrichment score": -0.0891}
{"Variant": "HELFQRADFDNDG [L7A]", "normalised enrichment score": -0.189}
{"data": "Study 5", "target": "ABI1, truncated, D143A, DHFR fusion (Arabidopsis thaliana)", "technique": "DHFR PCA, deep sequencing", "medium": "yeast", "setting": "methotrexate growth selection, single substitutions", "added": "(+)-ABA 17 µM", "reference": "wild-type fitted maximum", "direction": "higher = stronger binding", "starting sequence": "PYL1, truncated, DHFR fusion (Arabidopsis thaliana); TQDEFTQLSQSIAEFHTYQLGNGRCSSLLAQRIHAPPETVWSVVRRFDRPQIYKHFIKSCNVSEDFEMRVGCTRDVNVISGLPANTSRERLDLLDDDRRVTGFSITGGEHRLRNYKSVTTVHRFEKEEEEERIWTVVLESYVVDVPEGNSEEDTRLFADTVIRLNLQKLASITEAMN"}
{"Variant": "R163S", "relative binding score": "67.4%"}
{"Variant": "V161A", "relative binding score": "1.31%"}
{"Variant": "I162Y", "relative binding score": "-1.99%"}
{"Variant": "R45P", "relative binding score": "-3.78%"}
{"Variant": "L91Q", "relative binding score": "-12.3%"}
{"Variant": "R111V", "relative binding score": "4.32%"}
{"Variant": "N114S", "relative binding score": "38.5%"}
{"Variant": "A13E", "relative binding score": "86.4%"}
{"Variant": "T101C", "relative binding score": "76.4%"}
{"Variant": "F66K", "relative binding score": "70.1%"}
{"Variant": "G23W", "relative binding score": "27.9%"}
{"Variant": "D159E", "relative binding score": "71.6%"}
{"Variant": "E129P", "relative binding score": "87.2%"}
{"Variant": "D96C", "relative binding score": "10%"}
{"note": "Repeated from above (study 1):"}
{"Oligonucleotide": "CTCGTAGA", "E-score": -0.0726}
{"Oligonucleotide": "ATCAGGAG", "E-score": 0.0148}
{"Oligonucleotide": "AGCACCAA", "E-score": 0.0232}
{"Oligonucleotide": "AGAACAAT", "E-score": 0.303}
{"Oligonucleotide": "AATCCGTG", "E-score": -0.151}
{"Oligonucleotide": "CTAAGTAG", "E-score": -0.0296}
{"Oligonucleotide": "CATTCAGG", "E-score": -0.0299}
